{"data": "Published values collected from several papers", "note": "Numbered parts are unrelated; each lists some results of a single study. Positions count from the first letter of the parent shown.", "UniProt P30530, sequence (whole entry, looked up)": "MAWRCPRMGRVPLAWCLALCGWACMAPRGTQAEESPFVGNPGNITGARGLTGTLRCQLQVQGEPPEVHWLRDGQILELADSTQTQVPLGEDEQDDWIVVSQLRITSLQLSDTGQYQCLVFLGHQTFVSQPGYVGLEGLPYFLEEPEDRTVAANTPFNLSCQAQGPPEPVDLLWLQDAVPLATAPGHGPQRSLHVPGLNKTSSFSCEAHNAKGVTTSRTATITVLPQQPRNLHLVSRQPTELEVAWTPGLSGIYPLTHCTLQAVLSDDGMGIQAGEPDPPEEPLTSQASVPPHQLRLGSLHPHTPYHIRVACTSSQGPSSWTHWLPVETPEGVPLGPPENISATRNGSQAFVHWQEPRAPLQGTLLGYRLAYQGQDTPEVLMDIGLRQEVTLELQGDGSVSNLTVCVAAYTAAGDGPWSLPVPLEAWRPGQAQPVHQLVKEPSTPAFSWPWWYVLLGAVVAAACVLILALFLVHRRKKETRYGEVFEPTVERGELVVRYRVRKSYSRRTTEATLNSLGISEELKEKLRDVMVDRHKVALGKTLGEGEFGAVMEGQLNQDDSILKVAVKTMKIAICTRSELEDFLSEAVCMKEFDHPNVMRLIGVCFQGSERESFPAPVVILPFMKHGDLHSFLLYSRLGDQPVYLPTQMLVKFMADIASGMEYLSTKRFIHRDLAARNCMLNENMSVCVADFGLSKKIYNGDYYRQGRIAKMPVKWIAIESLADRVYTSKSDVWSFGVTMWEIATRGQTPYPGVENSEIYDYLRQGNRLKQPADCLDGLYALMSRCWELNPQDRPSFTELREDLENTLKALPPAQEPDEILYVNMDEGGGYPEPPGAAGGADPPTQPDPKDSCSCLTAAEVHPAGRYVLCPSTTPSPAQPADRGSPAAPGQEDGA", "UniProt P06493, sequence (whole entry, looked up)": "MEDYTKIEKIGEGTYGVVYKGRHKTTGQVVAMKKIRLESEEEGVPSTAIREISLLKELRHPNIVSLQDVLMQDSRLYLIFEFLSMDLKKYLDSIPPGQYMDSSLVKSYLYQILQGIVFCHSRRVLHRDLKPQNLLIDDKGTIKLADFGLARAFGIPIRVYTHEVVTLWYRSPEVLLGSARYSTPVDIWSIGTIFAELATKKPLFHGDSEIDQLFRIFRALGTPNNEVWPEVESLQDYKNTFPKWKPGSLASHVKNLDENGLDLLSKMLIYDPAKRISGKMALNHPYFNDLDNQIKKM", "UniProt Q16644, sequence (whole entry, looked up)": "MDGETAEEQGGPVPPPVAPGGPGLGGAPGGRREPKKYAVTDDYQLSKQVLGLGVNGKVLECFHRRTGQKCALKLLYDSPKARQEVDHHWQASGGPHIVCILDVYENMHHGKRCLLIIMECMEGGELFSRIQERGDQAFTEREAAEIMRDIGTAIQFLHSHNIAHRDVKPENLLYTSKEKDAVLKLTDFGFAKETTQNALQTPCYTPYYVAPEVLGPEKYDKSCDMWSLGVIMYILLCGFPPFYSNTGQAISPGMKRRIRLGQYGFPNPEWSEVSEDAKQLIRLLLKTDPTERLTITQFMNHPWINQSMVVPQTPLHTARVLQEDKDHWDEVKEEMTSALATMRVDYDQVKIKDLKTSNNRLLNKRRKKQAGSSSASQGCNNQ", "UniProt O95819, sequence (whole entry, looked up)": "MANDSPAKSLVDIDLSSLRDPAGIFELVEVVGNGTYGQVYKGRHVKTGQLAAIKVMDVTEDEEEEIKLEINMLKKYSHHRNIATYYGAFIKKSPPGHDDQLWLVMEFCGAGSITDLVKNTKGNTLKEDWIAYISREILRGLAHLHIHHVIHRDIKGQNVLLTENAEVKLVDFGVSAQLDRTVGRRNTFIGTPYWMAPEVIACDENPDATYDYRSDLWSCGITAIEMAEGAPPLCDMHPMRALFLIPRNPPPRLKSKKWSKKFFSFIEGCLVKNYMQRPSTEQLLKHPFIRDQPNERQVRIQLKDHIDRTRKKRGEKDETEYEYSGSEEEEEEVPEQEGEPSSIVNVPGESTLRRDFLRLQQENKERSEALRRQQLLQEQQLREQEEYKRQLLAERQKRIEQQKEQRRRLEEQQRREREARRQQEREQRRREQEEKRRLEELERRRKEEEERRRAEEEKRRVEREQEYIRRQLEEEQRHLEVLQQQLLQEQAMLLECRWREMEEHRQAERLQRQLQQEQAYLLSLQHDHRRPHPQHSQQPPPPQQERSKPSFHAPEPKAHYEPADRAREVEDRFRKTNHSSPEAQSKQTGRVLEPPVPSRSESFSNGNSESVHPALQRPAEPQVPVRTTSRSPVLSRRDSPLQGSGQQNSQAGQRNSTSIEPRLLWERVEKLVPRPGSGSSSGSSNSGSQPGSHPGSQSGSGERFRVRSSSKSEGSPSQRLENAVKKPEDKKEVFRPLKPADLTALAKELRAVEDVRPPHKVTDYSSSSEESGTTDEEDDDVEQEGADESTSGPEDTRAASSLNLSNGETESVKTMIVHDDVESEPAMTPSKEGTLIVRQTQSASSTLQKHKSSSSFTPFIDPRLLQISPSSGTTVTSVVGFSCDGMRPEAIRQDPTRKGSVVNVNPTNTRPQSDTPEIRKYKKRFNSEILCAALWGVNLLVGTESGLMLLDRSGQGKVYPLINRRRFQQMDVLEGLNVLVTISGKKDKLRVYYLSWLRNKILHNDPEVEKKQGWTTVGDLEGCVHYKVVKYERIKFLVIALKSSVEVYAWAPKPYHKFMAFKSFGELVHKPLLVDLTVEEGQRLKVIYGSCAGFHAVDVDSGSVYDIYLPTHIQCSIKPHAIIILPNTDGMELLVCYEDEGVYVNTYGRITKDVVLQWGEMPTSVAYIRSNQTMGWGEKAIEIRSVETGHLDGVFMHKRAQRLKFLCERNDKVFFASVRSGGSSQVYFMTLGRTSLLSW", "UniProt O43781, sequence (whole entry, looked up)": "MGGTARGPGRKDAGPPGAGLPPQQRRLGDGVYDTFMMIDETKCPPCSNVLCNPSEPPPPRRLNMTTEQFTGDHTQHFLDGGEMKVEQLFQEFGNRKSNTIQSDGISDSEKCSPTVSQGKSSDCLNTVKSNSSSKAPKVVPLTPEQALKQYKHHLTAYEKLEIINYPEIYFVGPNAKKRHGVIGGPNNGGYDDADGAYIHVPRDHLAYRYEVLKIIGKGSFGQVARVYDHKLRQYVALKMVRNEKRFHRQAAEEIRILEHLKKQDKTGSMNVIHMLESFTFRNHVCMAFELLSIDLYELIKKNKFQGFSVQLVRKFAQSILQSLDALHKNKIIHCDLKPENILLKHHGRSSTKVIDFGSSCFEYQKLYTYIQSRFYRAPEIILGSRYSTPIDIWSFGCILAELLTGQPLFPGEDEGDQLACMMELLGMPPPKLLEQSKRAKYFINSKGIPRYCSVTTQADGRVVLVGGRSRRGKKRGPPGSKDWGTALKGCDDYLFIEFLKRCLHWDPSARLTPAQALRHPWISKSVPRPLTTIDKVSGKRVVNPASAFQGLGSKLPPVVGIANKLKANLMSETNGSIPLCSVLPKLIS", "UniProt Q16816, sequence (whole entry, looked up)": "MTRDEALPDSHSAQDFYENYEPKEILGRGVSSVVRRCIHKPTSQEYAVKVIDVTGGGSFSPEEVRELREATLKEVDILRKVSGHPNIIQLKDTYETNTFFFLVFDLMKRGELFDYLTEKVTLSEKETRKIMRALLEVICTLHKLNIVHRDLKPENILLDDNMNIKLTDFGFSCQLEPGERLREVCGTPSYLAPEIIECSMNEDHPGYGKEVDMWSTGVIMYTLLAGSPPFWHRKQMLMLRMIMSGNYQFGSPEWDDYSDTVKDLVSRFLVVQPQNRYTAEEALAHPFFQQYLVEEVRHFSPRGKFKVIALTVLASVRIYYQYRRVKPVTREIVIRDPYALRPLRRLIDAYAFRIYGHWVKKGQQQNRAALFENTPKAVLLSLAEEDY", "UniProt P11802, sequence (whole entry, looked up)": "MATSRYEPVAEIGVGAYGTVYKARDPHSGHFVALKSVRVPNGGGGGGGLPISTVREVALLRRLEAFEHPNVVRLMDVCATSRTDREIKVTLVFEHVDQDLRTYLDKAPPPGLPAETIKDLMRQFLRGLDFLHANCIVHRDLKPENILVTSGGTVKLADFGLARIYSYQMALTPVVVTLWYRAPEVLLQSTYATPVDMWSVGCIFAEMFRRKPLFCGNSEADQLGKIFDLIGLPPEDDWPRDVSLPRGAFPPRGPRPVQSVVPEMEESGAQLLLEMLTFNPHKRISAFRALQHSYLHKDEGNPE", "UniProt P42679, sequence (whole entry, looked up)": "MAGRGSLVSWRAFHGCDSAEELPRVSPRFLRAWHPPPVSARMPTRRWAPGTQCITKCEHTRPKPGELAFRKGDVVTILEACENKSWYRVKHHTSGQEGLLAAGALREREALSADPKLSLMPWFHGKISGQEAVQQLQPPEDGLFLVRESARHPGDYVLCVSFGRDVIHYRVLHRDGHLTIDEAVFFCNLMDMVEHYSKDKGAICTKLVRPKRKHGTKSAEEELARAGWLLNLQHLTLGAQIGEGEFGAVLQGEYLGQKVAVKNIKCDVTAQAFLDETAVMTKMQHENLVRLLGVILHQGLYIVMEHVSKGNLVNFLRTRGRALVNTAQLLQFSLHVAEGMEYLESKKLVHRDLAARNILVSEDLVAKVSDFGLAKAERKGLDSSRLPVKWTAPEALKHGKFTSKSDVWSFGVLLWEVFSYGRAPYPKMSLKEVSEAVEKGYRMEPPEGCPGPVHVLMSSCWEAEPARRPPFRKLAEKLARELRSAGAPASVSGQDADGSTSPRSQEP", "UniProt Q9UEE5, sequence (whole entry, looked up)": "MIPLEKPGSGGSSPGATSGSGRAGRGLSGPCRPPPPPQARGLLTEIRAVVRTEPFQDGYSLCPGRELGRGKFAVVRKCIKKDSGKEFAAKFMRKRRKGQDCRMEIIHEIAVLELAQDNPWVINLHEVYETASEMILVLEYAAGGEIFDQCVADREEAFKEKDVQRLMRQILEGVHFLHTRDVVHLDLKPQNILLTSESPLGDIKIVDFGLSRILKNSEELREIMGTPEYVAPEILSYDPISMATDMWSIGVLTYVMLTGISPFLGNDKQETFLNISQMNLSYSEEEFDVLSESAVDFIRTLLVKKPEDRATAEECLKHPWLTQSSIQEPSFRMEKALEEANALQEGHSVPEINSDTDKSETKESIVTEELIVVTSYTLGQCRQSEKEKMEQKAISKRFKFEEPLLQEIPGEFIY"}
{"data": "Sample 1", "target": "TAR DNA-binding protein 43, full length, His tag (TARDBP, Homo sapiens, UniProt Q13148, residues 1-414)", "method": "RNA Bind-n-Seq", "form": "RNA", "sample": "in vitro", "concentration": "20 nM", "setting": "6-mer, flanks averaged, single round", "together with": "150 mM KCl", "relative to": "input library", "direction": "higher = stronger binding"}
{"Oligonucleotide": "GUUGGG", "6-mer enrichment (R)": 3.39}
{"Oligonucleotide": "GCACUA", "6-mer enrichment (R)": 0.69}
{"Oligonucleotide": "ACCGGC", "6-mer enrichment (R)": 0.874}
{"Oligonucleotide": "UCAAAA", "6-mer enrichment (R)": 0.611}
{"Oligonucleotide": "UCACAU", "6-mer enrichment (R)": 0.569}
{"Oligonucleotide": "CGGCAG", "6-mer enrichment (R)": 1.55}
{"Oligonucleotide": "AUACAG", "6-mer enrichment (R)": 0.68}
{"Oligonucleotide": "CGAAUC", "6-mer enrichment (R)": 0.597}
{"data": "Sample 2", "Compound": "CCCCN(CCCC)C(=O)CN1C[C@H](c2cc(OC)c3c(c2)OCO3)[C@@H](C(=O)O)[C@@H]1CC(C)(C)CCC", "effect on": "cell-free assay", "method": "competition with immobilised ligand", "concentration": "1 µM"}
{"target": "MATK (Homo sapiens, UniProt P42679)", "remaining binding": "62.8%"}
{"target": "MAP3K13 (Homo sapiens, UniProt O43283)", "remaining binding": "89.3%"}
{"target": "KIT (Homo sapiens, UniProt P10721, A829P)", "remaining binding": "80.9%"}
{"target": "BTK (Homo sapiens, UniProt Q06187)", "remaining binding": "61.3%"}
{"target": "EGFR (Homo sapiens, UniProt P00533, L858R)", "remaining binding": "99.7%"}
{"target": "MAPK8 (Homo sapiens, UniProt P45983)", "remaining binding": "100%"}
{"target": "WNK2 (Homo sapiens, UniProt Q9Y3S1)", "remaining binding": "60.2%"}
{"target": "IKBKE (Homo sapiens, UniProt Q14164)", "remaining binding": "80.9%"}
{"data": "Sample 3", "target": "JUND, bZIP domain (human)", "method": "DHFR protein complementation", "sample": "yeast", "setting": "single substitutions, most at no-binding floor", "relative to": "wild-type JUN-FOS pair", "direction": "higher = stronger binding", "starting sequence": "JUN, bZIP domain (human); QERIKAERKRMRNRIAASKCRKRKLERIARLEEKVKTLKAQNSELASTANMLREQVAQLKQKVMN"}
{"Substitution": "I28P", "binding fitness [natural log]": -1.3}
{"Substitution": "L59G", "binding fitness [natural log]": -1.5}
{"Substitution": "I28N", "binding fitness [natural log]": -1.31}
{"Substitution": "S47P", "binding fitness [natural log]": -1.35}
{"Substitution": "L38N", "binding fitness [natural log]": -1.49}
{"Substitution": "E44G", "binding fitness [natural log]": -1.25}
{"Substitution": "E32W", "binding fitness [natural log]": -1.28}
{"Substitution": "L31A", "binding fitness [natural log]": -1.42}
{"data": "Sample 4", "SMILES": "COc1ccc(-c2cnc3c(-c4ccsc4)cnn3c2)cc1", "effect on": "enzyme activity", "action": "inhibitor", "concentration": "0.5 µM", "relative to": "control"}
{"target": "MAP4K4 (Homo sapiens, UniProt O95819)", "remaining activity [%]": 28.4}
{"target": "Cyclin-dependent kinase 1, with cyclin B (CDK1, Homo sapiens, UniProt P06493)", "remaining activity [%]": 87.2}
{"target": "RPS6KA5 (Homo sapiens, UniProt O75582)", "remaining activity [%]": 90.3}
{"target": "HIPK2 (Homo sapiens, UniProt Q9H2X6)", "remaining activity [%]": 91.2}
{"target": "PRKACG (Homo sapiens, UniProt P22612)", "remaining activity [%]": 93.9}
{"target": "WNK3 (Homo sapiens, UniProt Q9BYP7)", "remaining activity [%]": 92.7}
{"target": "DYRK3 (Homo sapiens, UniProt O43781)", "remaining activity [%]": 89.9}
{"target": "PHKG1 (Homo sapiens, UniProt Q16816)", "remaining activity [%]": 73.2}
{"target": "ABL1 (Homo sapiens, UniProt P00519)", "remaining activity [%]": 72.9}
{"target": "STK17A (Homo sapiens, UniProt Q9UEE5)", "remaining activity [%]": 91.6}
{"target": "AXL (Homo sapiens, UniProt P30530)", "remaining activity [%]": 96.7}
{"target": "CAMK2B (Homo sapiens, UniProt Q13554)", "remaining activity [%]": 88.7}
{"target": "MAPKAPK3 (Homo sapiens, UniProt Q16644)", "remaining activity [%]": 97.5}
{"target": "Cyclin-dependent kinase 4, with cyclin D3 (CDK4, Homo sapiens, UniProt P11802)", "remaining activity [%]": 82.9}
{"target": "BLK (Homo sapiens, UniProt P51451)", "remaining activity [%]": 83.5}
{"target": "PDPK1 (Homo sapiens, UniProt O15530)", "remaining activity [%]": 96}
{"target": "Cyclin-dependent kinase 6, with cyclin D3 (CDK6, Homo sapiens, UniProt Q00534)", "remaining activity [%]": 33.4}
{"target": "TSSK2 (Homo sapiens, UniProt Q96PF2)", "remaining activity [%]": 99}
{"target": "EPHB4 (Homo sapiens, UniProt P54760)", "remaining activity [%]": 87.5}
{"target": "EPHB1 (Homo sapiens, UniProt P54762)", "remaining activity [%]": 83.1}
{"target": "RPS6KA6 (Homo sapiens, UniProt Q9UK32)", "remaining activity [%]": 90.7}
{"target": "SRMS (Homo sapiens, UniProt Q9H3Y6)", "remaining activity [%]": 97.4}
{"note": "Some of these lines once more (sample 4):"}
{"target": "Cyclin-dependent kinase 4, with cyclin D3 (CDK4, Homo sapiens, UniProt P11802)", "remaining activity [%]": 82.9}
{"target": "BLK (Homo sapiens, UniProt P51451)", "remaining activity [%]": 83.5}
{"target": "PDPK1 (Homo sapiens, UniProt O15530)", "remaining activity [%]": 96}
{"target": "Cyclin-dependent kinase 6, with cyclin D3 (CDK6, Homo sapiens, UniProt Q00534)", "remaining activity [%]": 33.4}
{"target": "TSSK2 (Homo sapiens, UniProt Q96PF2)", "remaining activity [%]": 99}
{"target": "EPHB4 (Homo sapiens, UniProt P54760)", "remaining activity [%]": 87.5}
{"target": "EPHB1 (Homo sapiens, UniProt P54762)", "remaining activity [%]": 83.1}
